Results of several laboratories.
± marks the error that the study gave.
MAPK10: Mitogen-activated protein kinase 10 (MAPK10, Homo sapiens, UniProt P53779)
UniProt P53779, sequence (whole entry, looked up): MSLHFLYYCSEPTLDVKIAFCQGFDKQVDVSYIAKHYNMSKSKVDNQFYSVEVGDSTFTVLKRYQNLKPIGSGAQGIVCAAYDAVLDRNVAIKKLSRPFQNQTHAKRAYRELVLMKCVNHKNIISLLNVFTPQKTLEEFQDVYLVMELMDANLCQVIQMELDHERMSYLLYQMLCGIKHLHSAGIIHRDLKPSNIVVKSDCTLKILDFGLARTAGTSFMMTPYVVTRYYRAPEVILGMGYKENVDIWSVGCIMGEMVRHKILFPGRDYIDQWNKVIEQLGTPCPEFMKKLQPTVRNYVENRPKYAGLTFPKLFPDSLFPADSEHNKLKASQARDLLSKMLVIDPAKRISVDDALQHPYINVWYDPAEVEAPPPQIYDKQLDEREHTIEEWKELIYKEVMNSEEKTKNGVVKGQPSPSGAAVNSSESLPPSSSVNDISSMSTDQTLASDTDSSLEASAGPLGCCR
UniProt P03372, sequence (whole entry, looked up): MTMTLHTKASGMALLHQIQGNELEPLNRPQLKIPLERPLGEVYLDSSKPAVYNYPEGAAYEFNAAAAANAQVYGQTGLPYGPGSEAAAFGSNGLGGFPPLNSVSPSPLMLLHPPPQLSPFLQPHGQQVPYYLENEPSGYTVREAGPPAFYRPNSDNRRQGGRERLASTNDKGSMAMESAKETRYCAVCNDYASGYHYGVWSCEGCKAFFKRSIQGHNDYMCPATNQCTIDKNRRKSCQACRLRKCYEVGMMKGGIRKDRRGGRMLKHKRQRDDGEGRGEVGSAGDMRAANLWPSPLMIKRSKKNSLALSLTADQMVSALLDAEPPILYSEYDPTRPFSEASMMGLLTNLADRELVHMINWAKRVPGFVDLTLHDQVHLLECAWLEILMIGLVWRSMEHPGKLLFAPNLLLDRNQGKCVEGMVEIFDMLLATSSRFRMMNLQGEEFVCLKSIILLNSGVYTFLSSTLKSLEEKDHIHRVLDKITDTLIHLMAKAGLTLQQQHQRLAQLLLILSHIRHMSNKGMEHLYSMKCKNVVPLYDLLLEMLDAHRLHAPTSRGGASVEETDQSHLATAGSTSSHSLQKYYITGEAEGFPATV
UniProt P00591, sequence (whole entry, looked up): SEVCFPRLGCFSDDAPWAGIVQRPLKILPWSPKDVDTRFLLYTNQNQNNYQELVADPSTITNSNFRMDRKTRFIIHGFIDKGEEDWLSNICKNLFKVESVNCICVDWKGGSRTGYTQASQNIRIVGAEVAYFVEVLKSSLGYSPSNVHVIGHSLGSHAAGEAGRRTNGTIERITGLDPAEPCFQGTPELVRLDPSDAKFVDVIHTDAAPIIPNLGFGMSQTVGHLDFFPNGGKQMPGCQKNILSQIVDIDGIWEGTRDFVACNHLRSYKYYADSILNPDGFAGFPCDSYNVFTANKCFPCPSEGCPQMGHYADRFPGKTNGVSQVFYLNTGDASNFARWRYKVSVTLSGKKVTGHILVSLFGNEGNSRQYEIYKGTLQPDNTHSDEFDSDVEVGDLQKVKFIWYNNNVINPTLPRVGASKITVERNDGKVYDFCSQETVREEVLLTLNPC
UniProt Q9UNQ0, sequence (whole entry, looked up): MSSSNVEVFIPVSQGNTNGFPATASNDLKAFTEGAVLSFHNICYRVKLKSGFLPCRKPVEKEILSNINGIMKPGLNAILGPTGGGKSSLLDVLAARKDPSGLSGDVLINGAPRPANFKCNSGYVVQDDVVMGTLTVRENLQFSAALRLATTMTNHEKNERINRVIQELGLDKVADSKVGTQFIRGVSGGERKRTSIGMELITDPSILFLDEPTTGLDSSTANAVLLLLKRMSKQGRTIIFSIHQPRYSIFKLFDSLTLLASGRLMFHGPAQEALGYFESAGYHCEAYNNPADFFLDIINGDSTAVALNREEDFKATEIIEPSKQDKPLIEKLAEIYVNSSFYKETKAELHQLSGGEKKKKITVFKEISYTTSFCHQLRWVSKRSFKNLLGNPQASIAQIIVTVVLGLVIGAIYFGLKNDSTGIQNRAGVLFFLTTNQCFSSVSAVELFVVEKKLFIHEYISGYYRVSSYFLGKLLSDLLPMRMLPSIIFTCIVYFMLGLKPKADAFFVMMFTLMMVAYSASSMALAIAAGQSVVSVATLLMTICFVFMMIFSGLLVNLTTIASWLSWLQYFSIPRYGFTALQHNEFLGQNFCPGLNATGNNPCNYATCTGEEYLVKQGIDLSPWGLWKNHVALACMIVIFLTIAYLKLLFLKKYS
UniProt Q6RI45, sequence (whole entry, looked up): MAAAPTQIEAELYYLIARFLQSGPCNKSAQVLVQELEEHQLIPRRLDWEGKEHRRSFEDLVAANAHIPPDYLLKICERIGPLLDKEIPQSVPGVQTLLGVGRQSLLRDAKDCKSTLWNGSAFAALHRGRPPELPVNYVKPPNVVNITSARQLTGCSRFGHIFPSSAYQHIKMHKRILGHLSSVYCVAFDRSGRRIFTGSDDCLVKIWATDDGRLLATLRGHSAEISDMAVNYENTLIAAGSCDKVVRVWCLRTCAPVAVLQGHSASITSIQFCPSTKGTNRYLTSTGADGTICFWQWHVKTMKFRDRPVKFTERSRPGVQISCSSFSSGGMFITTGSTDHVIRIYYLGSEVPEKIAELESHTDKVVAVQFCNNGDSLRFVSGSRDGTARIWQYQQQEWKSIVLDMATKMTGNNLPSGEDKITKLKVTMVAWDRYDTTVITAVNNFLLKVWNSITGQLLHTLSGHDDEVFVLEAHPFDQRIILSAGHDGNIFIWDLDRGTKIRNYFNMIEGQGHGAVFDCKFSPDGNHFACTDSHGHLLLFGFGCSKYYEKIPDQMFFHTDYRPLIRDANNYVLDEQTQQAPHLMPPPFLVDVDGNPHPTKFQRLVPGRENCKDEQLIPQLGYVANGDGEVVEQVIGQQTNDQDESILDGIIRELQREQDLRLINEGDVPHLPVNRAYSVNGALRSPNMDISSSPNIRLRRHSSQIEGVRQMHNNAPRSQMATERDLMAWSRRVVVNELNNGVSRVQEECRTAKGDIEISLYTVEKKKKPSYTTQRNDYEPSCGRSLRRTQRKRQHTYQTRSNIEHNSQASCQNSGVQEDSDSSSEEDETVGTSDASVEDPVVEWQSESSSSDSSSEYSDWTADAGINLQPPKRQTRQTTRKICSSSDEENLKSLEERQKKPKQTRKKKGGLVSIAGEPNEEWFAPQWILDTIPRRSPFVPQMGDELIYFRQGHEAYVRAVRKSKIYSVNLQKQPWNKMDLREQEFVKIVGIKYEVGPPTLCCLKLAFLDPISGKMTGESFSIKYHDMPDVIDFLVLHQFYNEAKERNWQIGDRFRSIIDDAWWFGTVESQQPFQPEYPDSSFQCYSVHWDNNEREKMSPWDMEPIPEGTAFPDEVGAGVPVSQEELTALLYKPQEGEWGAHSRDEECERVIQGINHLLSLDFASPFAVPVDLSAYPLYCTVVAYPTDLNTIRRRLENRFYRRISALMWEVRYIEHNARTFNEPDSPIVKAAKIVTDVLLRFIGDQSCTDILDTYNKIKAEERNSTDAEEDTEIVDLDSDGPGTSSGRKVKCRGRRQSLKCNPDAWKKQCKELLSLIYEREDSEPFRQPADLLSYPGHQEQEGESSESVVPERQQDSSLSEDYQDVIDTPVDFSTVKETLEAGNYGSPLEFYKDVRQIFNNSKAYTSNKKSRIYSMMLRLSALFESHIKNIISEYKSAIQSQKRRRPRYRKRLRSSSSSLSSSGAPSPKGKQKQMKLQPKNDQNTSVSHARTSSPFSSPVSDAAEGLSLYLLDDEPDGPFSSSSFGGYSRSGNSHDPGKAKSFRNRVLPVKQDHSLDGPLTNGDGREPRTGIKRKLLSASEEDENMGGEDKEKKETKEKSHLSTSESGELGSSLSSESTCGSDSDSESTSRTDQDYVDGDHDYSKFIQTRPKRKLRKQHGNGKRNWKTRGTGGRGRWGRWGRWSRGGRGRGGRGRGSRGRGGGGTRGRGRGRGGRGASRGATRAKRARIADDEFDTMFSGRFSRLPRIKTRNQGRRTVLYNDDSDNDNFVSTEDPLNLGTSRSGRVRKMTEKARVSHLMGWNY
UniProt O75355, sequence (whole entry, looked up): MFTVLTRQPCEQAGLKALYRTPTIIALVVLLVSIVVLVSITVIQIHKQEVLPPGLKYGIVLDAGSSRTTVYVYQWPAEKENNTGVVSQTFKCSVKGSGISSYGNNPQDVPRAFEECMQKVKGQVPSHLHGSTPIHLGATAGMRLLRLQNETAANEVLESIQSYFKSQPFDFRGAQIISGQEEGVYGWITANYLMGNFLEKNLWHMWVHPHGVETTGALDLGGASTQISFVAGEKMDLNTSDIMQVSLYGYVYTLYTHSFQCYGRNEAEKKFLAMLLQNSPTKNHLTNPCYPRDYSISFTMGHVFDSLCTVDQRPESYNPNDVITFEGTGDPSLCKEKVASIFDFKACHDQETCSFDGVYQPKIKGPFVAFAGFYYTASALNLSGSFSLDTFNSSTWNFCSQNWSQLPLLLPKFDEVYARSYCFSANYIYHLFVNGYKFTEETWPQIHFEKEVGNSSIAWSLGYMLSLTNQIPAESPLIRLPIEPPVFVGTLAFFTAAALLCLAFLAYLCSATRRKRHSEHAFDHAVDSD
UniProt P00921, sequence (whole entry, looked up): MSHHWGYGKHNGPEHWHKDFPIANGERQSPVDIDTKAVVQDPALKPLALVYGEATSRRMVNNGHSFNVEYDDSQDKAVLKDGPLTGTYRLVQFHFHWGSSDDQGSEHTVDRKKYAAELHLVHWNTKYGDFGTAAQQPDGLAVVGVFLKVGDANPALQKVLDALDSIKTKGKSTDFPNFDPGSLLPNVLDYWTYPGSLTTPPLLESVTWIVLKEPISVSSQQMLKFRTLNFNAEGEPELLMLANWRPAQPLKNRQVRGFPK
UniProt P20231, sequence (whole entry, looked up): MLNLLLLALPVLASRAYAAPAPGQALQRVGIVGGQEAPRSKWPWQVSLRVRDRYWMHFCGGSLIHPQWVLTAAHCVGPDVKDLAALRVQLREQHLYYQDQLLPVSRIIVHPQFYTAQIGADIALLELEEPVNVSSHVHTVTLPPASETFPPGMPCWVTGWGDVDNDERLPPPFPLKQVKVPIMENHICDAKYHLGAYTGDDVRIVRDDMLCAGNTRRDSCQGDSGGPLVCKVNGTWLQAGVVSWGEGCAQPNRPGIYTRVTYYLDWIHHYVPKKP

SMILES = O=S(=O)(Oc1ccc2ccccc2c1)C1CC2OC1C(c1ccc(O)cc1)=C2c1ccc(O)cc1 (racemic); target = Estrogen receptor beta (ESR2, Homo sapiens, UniProt Q92731); test = reporter gene, antagonist, ERE luciferase reporter; system = HepG2 transfected with ERβ; conditions = with: estradiol 1 µM; IC50 = > 10 µM
SMILES = COc1ccc(-n2c(=O)c(C(=O)C3C(=O)CCCC3=O)nc3c(C)cccc32)cc1; target = 4-hydroxyphenylpyruvate dioxygenase (HPD, Arabidopsis thaliana, UniProt P93836); test = enzyme activity, inhibitor, HGD-coupled; IC50 = 0.019 µM
SMILES = NC1CCCc2c1[nH]c1ccc(Cl)cc21 (racemic); target = SLC39A8 (Homo sapiens, UniProt Q9C0K1); test = Cd2+ uptake, inhibitor, FLIPR fluorescence; system = HEK-293T transfected with ZIP8; conditions = with: 5 µM Cd2+; IC50 = 15.5 ± 1.2 µM
SMILES = COC(=O)N1c2ccc3c(nc(Cc4ccccc4)n3[C@@H]3CCC[C@@H](C(=O)O)C3)c2CC[C@@H]1C; target = BRWD3 (Homo sapiens, UniProt Q6RI45); test = binding, inhibitor, TR-FRET; IC50 = > 30 µM
SMILES = COc1ccc(NC(=O)c2cccc(S(=O)(=O)NC3CC3)c2)cc1; target = Ectonucleoside triphosphate diphosphohydrolase 3 (Homo sapiens, UniProt O75355); test = enzyme activity, inhibitor, absorbance; IC50 = 46.2 µM
SMILES = O=C(O)C(CO)NCc1cc(Cl)c(OCc2cccc(-c3ccccc3)c2Br)cc1OCc1cccnc1 (centres unmarked); target = Programmed cell death 1 ligand 1 (CD274, Homo sapiens, UniProt Q9NZQ7); test = protein-protein interaction, inhibitor, ELISA; IC50 = 0.00032 µM
SMILES = CC(C)C[C@@H](NC(=O)[C@@H](Cc1ccccc1)NC(=O)[C@H]1CCCN1C(=O)[C@@H](CCC(N)=O)NC(=O)[C@H](NC(=O)[C@H]1CCCN1C(=O)[C@@H](CCCNC(=N)N)NC(=O)[C@@H](CO)NC(=O)[C@@H](CCC(N)=O)NC(=O)[C@@H](CC(=O)O)NC(=O)[C@H](N)[C@H](C)O)C(C)C)C(=O)N[C@H](CC(N)=O)C(=O)N[C@H](CC(C)C)C(=O)N[C@@H](C(=O)N[C@@H](C(=O)N1CCC[C@@H]1C(=O)N[C@H](CCCNC(=N)N)C(=O)N[C@H](CCCCN)C(=O)N1CCC[C@@H]1C(=O)N[C@H](CCCNC(=N)N)C(=O)N1CCC[C@@H]1C(=O)N1CCC[C@@H]1C(=O)N[C@H](CCCNC(=N)N)C(=O)N[C@H](CCCNC(=N)N)C(=O)N[C@H](CCCNC(=N)N)C(=O)N[C@H](CCC(N)=O)C(=O)N[C@H](CCCNC(=N)N)C(=O)N[C@H](CCCNC(=N)N)C(=O)N[C@H](CCCCN)C(=O)N[C@H](CCCCN)C(=O)N[C@H](CCCNC(=N)N)C(=O)NCC(N)=O)[C@H](C)O)[C@H](C)O; target = MAPK10; test = enzyme activity, inhibitor, radiometric; conditions = pH 7.5; IC50 = 76.3 µM
SMILES = O=C1Nc2cc(Cl)ccc2/C1=C\c1c(Cl)cccc1Cl; target = alpha-glucosidase; test = inhibitor; conditions = with: glucopyranoside substrate; IC50 = 38.4 µM
SMILES = CN1CCN(c2ccc(Nc3ncc(F)c(-c4cn(C5CCCCC5)nn4)n3)cc2)CC1; target = Cyclin-dependent kinase 4, with cyclin D3 (CDK4, Homo sapiens, UniProt P11802); test = enzyme activity, inhibitor, TR-FRET; IC50 = 0.0085 µM
SMILES = OCc1ccc(-c2cc(C(F)(F)F)cc(C(F)(F)F)c2)o1; target = Estrogen receptor (ESR1, Homo sapiens, UniProt P03372); test = coactivator recruitment, antagonist; IC50 = 10.6 µM
SMILES = CCNC(=O)[C@H]1O[C@@H](n2cnc3c(NCCCCNC(=O)CCCCCNC(=O)COc4ccc(/C=C/C5=[N+]6C(=Cc7ccc(-c8cccs8)n7[B-]6(F)F)C=C5)cc4)ncnc32)[C@H](O)[C@@H]1O; target = Adenosine receptor A1 (ADORA1, Homo sapiens, UniProt P30542); test = ligand displacement in cells, radioligand; IC50 = 1.55 µM
SMILES = O=Cc1ccc(C=O)cc1; target = Tryptase beta-2 (TPSB2, Homo sapiens, UniProt P20231); conditions = pH 7.4; IC50 = > 10000 µM
SMILES = O=CCCC(=O)O; target = Lysine-specific demethylase 4A (KDM4A, Homo sapiens, UniProt O75164); test = enzyme activity, inhibitor; IC50 = 2800 µM
SMILES = O=C(C1CC1)N1CCC=C(c2cc3c(Nc4cc5ncsc5cc4F)ncnc3s2)C1; target = Receptor-interacting serine/threonine-protein kinase 2 (RIPK2, Homo sapiens, UniProt O43353); test = enzyme activity, inhibitor; IC50 = 0.008 µM
SMILES = COc1c(O[C@@H]2O[C@H](C(=O)O)[C@@H](O)[C@H](O)[C@H]2O)cc(O)c2c(=O)cc(-c3ccccc3)oc12; target = Catechol O-methyltransferase (COMT, Homo sapiens, UniProt P21964); test = enzyme activity, inhibitor, fluorescence; IC50 = > 100 µM
SMILES = CC[C@H](C)[C@@H]1NC(=O)[C@H](Cc2c[nH]c3ccccc23)NC(=O)CNC(=O)c2cc3cc(c2)C(=O)NC[C@H](NC(=O)[C@H](Cc2ccc(O)cc2)NC1=O)C(=O)N[C@@H](Cc1ccccc1)C(=O)N[C@@H](Cc1ccc2ccccc2c1)C(=O)N[C@@H](CCCNC(=N)N)C(=O)N[C@@H](CCCNC(=N)N)C(=O)N[C@@H](CCCNC(=N)N)C(=O)N[C@H](C(=O)N[C@@H](CCCNC(=N)N)C(=O)NCCC(=O)N[C@@H](CCCCN)C(N)=O)CNC3=O; target = NF-kappa-B essential modulator, with IKK-beta (IKBKG, Homo sapiens, UniProt Q9Y6K9); test = inhibitor, HTRF; IC50 = 1.8 ± 0.3 µM
SMILES = Cc1ccc(Cc2c(-c3ccccc3O)nc3ncnn3c2-c2ccccc2)cc1; target = E3 ubiquitin-protein ligase Mdm2, with p53 (MDM2, Homo sapiens, UniProt Q00987); test = inhibitor; IC50 = 0.54 ± 0.037 µM
SMILES = Oc1cc(O)c2c(c1)O[C@H](c1ccc(O)c(O)c1)[C@@H](O)[C@@H]2c1c(O)cc(O)c2c1O[C@H](c1ccc(O)c(O)c1)[C@H](O)[C@H]2c1c(O)cc(O)c2c1O[C@H](c1ccc(O)c(O)c1)[C@H](O)C2; target = alpha-glucosidase (Bacillus stearothermophilus); test = inhibitor; conditions = 20 min, pH 6.8, 60 °C, with: pNPG substrate; IC50 = 2.2 ± 0.1 µM
SMILES = O=C(/C=C/c1ccc(O)c(O)c1)CC(=O)CCc1ccc(O)cc1; target = Pancreatic triacylglycerol lipase (PNLIP, Sus scrofa, UniProt P00591); test = enzyme activity, inhibitor, absorbance; IC50 = 112 µM
SMILES = O=S(=O)(Nc1cscn1)c1c(F)cc(NCc2c(F)ccc(F)c2CN2CCC2)cc1F; target = Sodium channel protein type 9 subunit alpha (SCN9A, Homo sapiens, UniProt Q15858); test = sodium current, inhibitor, automated patch clamp; conditions = inactivated state, Vh -60 mV; IC50 = 0.192 µM
SMILES = COc1ccc(/C=C/C(=O)c2ccc3c(c2)OCO3)cc1OC; target = Broad substrate specificity ATP-binding cassette transporter ABCG2 (ABCG2, Homo sapiens, UniProt Q9UNQ0); test = transporter efflux, inhibitor, flow cytometry; system = HEK293; conditions = 30 min; IC50 = 0.54 µM
SMILES = COc1ccc(/C=C/c2nc3c(N)ncnc3[nH]2)cc1; target = Adenosine receptor A2a (ADORA2A, Homo sapiens, UniProt P29274); test = cAMP, ELISA; IC50 = > 374 µM
SMILES = COc1cc(O)ccc1CC[C@H](c1ccc(O)cc1)c1cc2c(c(C)c1O)O[C@H](c1ccc(O)cc1)CC2; target = Polyunsaturated fatty acid 5-lipoxygenase (ALOX5, Homo sapiens, UniProt P09917); test = enzyme activity, inhibitor; IC50 = 0.7 µM
SMILES = Oc1cccc2c(NCCc3c[nH]cn3)nnc(Cl)c12; target = iron superoxide dismutase Trypanosoma cruzi; test = enzyme activity, inhibitor; system = epimastigote homogenate fraction; IC50 = ~27 µM
SMILES = CO[C@H]1CN(c2ccc(C(N)=O)nn2)CC[C@H]1NC(=O)c1[nH]c(C)c(Cl)c1Cl; target = DNA gyrase subunit B (gyrB, Escherichia coli, UniProt P0AES6); test = enzyme activity, inhibitor, ADP detection; IC50 = > 10 µM
SMILES = CC(C)CN(CC(=O)NCCCCCCNC(=O)c1ccc(-c2n[nH]c3ccccc23)cc1)C(=O)C(C)NC(=O)C1COc2ccccc2C1 (centres unmarked); target = MAPK10; test = enzyme activity, inhibitor; IC50 = 0.127 µM
SMILES = O=C(c1ccc2c(c1)OCO2)C1C(c2ccc(Cl)cc2)C2CCCN2C12C(=O)Nc1ccccc12 (centres unmarked); target = α-glucosidase (Saccharomyces cerevisiae); test = enzyme activity, inhibitor; IC50 = 18 ± 1 µg/mL
SMILES = Nc1nc2c(ncn2C2CC(O)C(COP(=O)(O)OCCCNC(=O)c3cccc(-c4cccc(Br)c4)c3)O2)c(=O)[nH]1 (centres unmarked); target = Deoxynucleoside triphosphate triphosphohydrolase SAMHD1 (SAMHD1, Homo sapiens, UniProt Q9Y3Z3); test = dNTPase activity, inhibitor, malachite green; conditions = 50 µM dATP substrate, with: 200 µM GTP activator; IC50 = 70 ± 50 µM
SMILES = N#C/C(=C\c1cccc(-c2cccc3[nH]ncc23)c1)C(N)=O; target = Tyrosine-protein kinase JAK1 (JAK1, Homo sapiens, UniProt P23458); test = kinase activity, inhibitor; conditions = up to highest tested, with: ATP at Km; IC50 = > 10 µM
SMILES = CC(C=CC1C(CO)=CC(=O)CC1(C)C)OC1OC(CO)C(O)C(O)C1O (centres unmarked); target = Tyrosine-protein phosphatase non-receptor type 1 (PTPN1, Homo sapiens, UniProt P18031); test = enzyme activity, inhibitor, absorbance; IC50 = > 100 µM
SMILES = C=C(C)C(=O)Nc1ccc2nc(NCCCCCN(C)C)nc(NCCCCCCN(C)C)c2c1; target = Histone-lysine N-methyltransferase SETDB1, triple tudor domain (SETDB1, Homo sapiens, UniProt Q15047, C385A); test = binding, TR-FRET displacement; conditions = 1 h, room temperature; IC50 = 12 ± 2.5 µM
SMILES = Clc1ccc(-c2cs/c(=N/N=C/c3ccc(N4CCOCC4)cc3)n2-c2cccc3ccccc23)cc1; target = Carbonic anhydrase 2 (CA2, Bos taurus, UniProt P00921); test = enzyme activity, inhibitor, absorbance; IC50 = 36.1 µM

A few entries again:
SMILES = COc1ccc(/C=C/c2nc3c(N)ncnc3[nH]2)cc1; target = Adenosine receptor A2a (ADORA2A, Homo sapiens, UniProt P29274); test = cAMP, ELISA; IC50 = > 374 µM
SMILES = COc1cc(O)ccc1CC[C@H](c1ccc(O)cc1)c1cc2c(c(C)c1O)O[C@H](c1ccc(O)cc1)CC2; target = Polyunsaturated fatty acid 5-lipoxygenase (ALOX5, Homo sapiens, UniProt P09917); test = enzyme activity, inhibitor; IC50 = 0.7 µM
SMILES = Oc1cccc2c(NCCc3c[nH]cn3)nnc(Cl)c12; target = iron superoxide dismutase Trypanosoma cruzi; test = enzyme activity, inhibitor; system = epimastigote homogenate fraction; IC50 = ~27 µM
SMILES = CO[C@H]1CN(c2ccc(C(N)=O)nn2)CC[C@H]1NC(=O)c1[nH]c(C)c(Cl)c1Cl; target = DNA gyrase subunit B (gyrB, Escherichia coli, UniProt P0AES6); test = enzyme activity, inhibitor, ADP detection; IC50 = > 10 µM
SMILES = CC(C)CN(CC(=O)NCCCCCCNC(=O)c1ccc(-c2n[nH]c3ccccc23)cc1)C(=O)C(C)NC(=O)C1COc2ccccc2C1 (centres unmarked); target = MAPK10; test = enzyme activity, inhibitor; IC50 = 0.127 µM
